# Assay results collected from several papers.
# Protocols differ between the studies behind these lines. ± gives the spread as reported.
Compound,test,test system,setting,scale,measurement,value
CN(CC#N)C(=O)C[C@H](Nc1nc2ccccc2[nH]1)c1cccc(C(F)(F)F)c1,,human,"intravenous infusion, 6 mg/kg, 1 mg/mL formulation",,AUC(0-t),25500 ± 5100 ng·h/mL
CC(C)=CCC/C(C)=C/CC/C(C)=C/CC[C@@](C)(O)CCC1=C(C)C(=O)C(C)=C(C)C1=O,,"healthy human, plasma","oral, 400 mg",,AUC(0-t) geometric mean,3130 ng·h/mL
NC[C@@]1(CC(=O)O)[C@@H]2CC[C@H]3C[C@@H]2[C@@H]1C3,,"human, normal renal function, plasma","dose not given, geometric mean",,AUC(0-t) unbound,1550 ng·h/mL
Cl.[2H]C([2H])([2H])CC(=O)c1cnc(NC(=O)C2CC2)cc1Nc1cccc(-c2ncn(C([2H])([2H])[2H])n2)c1OC,geometric mean,human,"oral, 17.5 mg single dose, fasted, liquid",,AUC(0-t),1900 ng·h/mL
Cc1cc(C)c(CNC(=O)c2cc(Cl)c3c(c2C)O[C@@](C)([C@H]2CC[C@H](N(C)C)CC2)O3)c(=O)[nH]1,geometric LS mean,"healthy male humans, plasma","oral, 25 mg, alone, fluconazole DDI study reference",,AUC(0-t),563 ng·h/mL
C=CC(=O)N(C)CCOc1c(N)ncnc1-c1cc(F)cc(NC(=O)c2ccc(C3CC3)cc2F)c1C,,"human, whole blood","oral, 60 mg, single ascending dose",,AUC(0-t),206 ng·h/mL
NC1(C(=O)N[C@@H](CCO)c2ccc(Cl)cc2)CCN(c2nc[nH]c3nccc2-3)CC1,,"human patients, plasma","dose not given, cohort 160/480, cycle 2, geometric mean",,AUC(0-t),2340 ng·h/mL
C=CCn1c(=O)c2cnc(Nc3ccc(N4CCN(C)CC4)cc3)nc2n1-c1cccc(C(C)(C)O)n1,,human,"oral, 125 mg twice daily, monotherapy lead-in, -5 days",geometric mean,AUC(0-t),4.18 µM·h
CO[C@H]1C[C@@H]2CC[C@@H](C)[C@@](O)(O2)C(=O)C(=O)N2CCCC[C@H]2C(=O)O[C@H]([C@H](C)C[C@@H]2CC[C@@H](OC(=O)NCCOCCOCCOCCOCCOCCOCCOCCOCCC(=O)N3CCc4cc(Cn5nc(-c6ccc7oc(N)nc7c6)c6c(N)ncnc65)ccc4C3)[C@H](OC)C2)C[C@@H](O)[C@H](C)/C=C(\C)[C@@H](O)[C@@H](OC)C(=O)[C@H](C)C[C@H](C)/C=C/C=C/C=C/1C,,"human, plasma","intravenous, 6 mg, cycle 1 day 1, arithmetic mean",,AUC(0-t),243 ng·h/mL
Cc1cc(Nc2ncnc3ccc(NC4=NC(C)(CO)CO4)cc23)ccc1Oc1ccn2ncnc2c1 (centres unmarked),,"human, plasma","tucatinib, day 10, added: rifampin once daily",,AUC(0-t) (geometric mean),311 ng·h/mL
CCCCC1=NC2(CCCC2)C(=O)N1Cc1ccc(-c2ccccc2S(=O)(=O)Nc2noc(C)c2C)c(COCC)c1,,"healthy humans, plasma","oral, 200 mg",baseline: fed over fasted,AUC(0-t) ratio,0.87

# A few entries again:
Compound,test,test system,setting,scale,measurement,value
NC1(C(=O)N[C@@H](CCO)c2ccc(Cl)cc2)CCN(c2nc[nH]c3nccc2-3)CC1,,"human patients, plasma","dose not given, cohort 160/480, cycle 2, geometric mean",,AUC(0-t),2340 ng·h/mL
